Measured values gathered from unrelated publications.
Numbered parts are unrelated; each lists some results of a single study.
Sequence of UniProt Q5BJF2 (whole entry, looked up): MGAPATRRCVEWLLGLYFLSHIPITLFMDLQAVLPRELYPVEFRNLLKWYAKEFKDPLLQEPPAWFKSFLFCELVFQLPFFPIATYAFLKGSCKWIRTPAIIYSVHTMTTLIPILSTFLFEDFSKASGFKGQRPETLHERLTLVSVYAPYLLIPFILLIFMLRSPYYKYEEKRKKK

Block 1 — species: mouse; sample: microsomes or S9; concentration: 2 µM; time: 0.5 h
With COc1cc(OC)cc(-c2nnc(SCC(=O)NC3CC4CCC3C4)[nH]2)c1 (centres unmarked) the remaining compound was 1.98%.
For Cc1ccc(N(Cc2ccc(F)cc2)N(C)CC(=O)NC2CCCCC2)cc1, the remaining compound was 0.115%.
The remaining compound of Cc1c(Br)c2ccccc2n1CC(=O)n1ncc(C#N)c1N is reported as 3.12%.
COc1ccc(NS(=O)(=O)c2c(C)nn(-c3ccc(-c4ccccc4)nn3)c2C)cc1F has a remaining compound of 45.4%.
COc1cc(=O)n(C)cc1C(=O)Nc1cc(C)on1 has a remaining compound of 33.3%.
CC(=O)c1cccc(N(CC(=O)Nc2ccc(S(=O)(=O)N3CCCC3)cc2)S(C)(=O)=O)c1 has a remaining compound of 1.19%.
With Cc1ncoc1C(=O)N1C2CCC1Cn1c(nnc1-c1ccccc1)C2 (centres unmarked) the remaining compound was 94.7%.
Cc1nc2sc(C(=O)NC(C)(C)C)c(N)c2c(C)c1C gave a remaining compound of 4.39%.
The remaining compound of Cc1ccc2c(c1C)NC(=O)CC2c1ccc(O)cc1 (centres unmarked) is reported as 8.96%.
COc1cc(Nc2ncnc3c2cnn3-c2ccc(C)cc2C)cc(OC)c1OC has a remaining compound of 17.9%.
With NC1=NC(c2ccc(Cl)cc2)N2C(=N1)N=C(O)c1ccccc12 (centres unmarked) the remaining compound was 27.2%.
For Cc1ccc(C)c(NC(=O)N2CCc3[nH]cnc3C2)c1, the remaining compound was 71.8%.

Block 2 — sample: plasma; route: oral
SMILES: COc1ccc(-c2c(Nc3ccccn3)[nH]c3c(C4=CCCCC4)c(-c4ccccc4)nn3c2=O)cc1
It gave 0.0364 µg/mL for “plasma concentration, mean” (cancer patients; 50 mg, 72 h post-dose, single dose).
The “plasma concentration, mean” was 1.09 µg/mL (LC-MS/MS; human; 50 mg once daily, 0.5 h, cycle 1).
human patients; 150 mg once daily, 3 h, cycle 1 — “plasma concentration, mean”: 5.61 µg/mL.
For cancer patients; 200 mg, 0 h post-dose, single dose: “plasma concentration, mean” read 0 µg/mL.
It gave 1.34 µg/mL for “plasma concentration, mean” (cancer patients; 150 mg, 4 h post-dose, single dose).
The “plasma concentration, mean” was 0.495 µg/mL (cancer patients; 150 mg, 48 h post-dose, single dose).
LC-MS/MS; human; 50 mg once daily, 3 h, cycle 1 — “plasma concentration, mean”: 1.57 µg/mL.
It gave 0 µg/mL for “plasma concentration, mean” (cancer patients; 400 mg, 0 h post-dose, single dose).
The “plasma concentration, mean” was 1.42 µg/mL (cancer patients; 200 mg, 6 h post-dose, single dose).
For cancer patients; 200 mg, 2 h post-dose, single dose: “plasma concentration, mean” read 1.1 µg/mL.
cancer patients; 150 mg, 1 h post-dose, single dose — “plasma concentration, mean”: 0.706 µg/mL.

Block 3 — effect on: enzyme activity; mode: inhibitor; concentration: 0.5 µM; baseline: control
Target: Ribosomal protein S6 kinase beta-1 (RPS6KB1, Homo sapiens, UniProt P23443)
Sequence of UniProt P23443 (whole entry, looked up): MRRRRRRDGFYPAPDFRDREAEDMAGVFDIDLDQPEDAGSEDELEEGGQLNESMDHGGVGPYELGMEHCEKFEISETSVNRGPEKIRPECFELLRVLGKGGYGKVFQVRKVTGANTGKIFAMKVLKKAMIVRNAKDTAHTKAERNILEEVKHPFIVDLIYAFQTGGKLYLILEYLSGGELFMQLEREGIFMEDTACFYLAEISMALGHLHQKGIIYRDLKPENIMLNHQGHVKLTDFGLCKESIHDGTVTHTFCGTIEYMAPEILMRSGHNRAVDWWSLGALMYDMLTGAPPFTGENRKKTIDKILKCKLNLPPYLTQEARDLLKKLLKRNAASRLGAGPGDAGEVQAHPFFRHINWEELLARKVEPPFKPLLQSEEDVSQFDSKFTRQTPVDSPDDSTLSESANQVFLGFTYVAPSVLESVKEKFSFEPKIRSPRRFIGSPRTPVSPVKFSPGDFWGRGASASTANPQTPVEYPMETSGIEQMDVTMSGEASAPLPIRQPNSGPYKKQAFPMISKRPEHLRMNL
The remaining activity of COc1ccc(S(=O)(=O)N(CCO)c2ccccc2CN(C)CC=Cc2ccc(Cl)cc2)cc1 is reported as 103%.
For CSc1nc(-c2ccnc(N[C@@H](C)c3ccccc3)c2)c(-c2ccc(F)cc2)[nH]1 (racemic), the remaining activity was 91.2%.
For CCCC(=O)Oc1ccc2[nH]c(C(=O)c3cc4ccccc4[nH]3)cc2c1, the remaining activity was 94.5%.
NC(=O)c1ccc(N(C(N)=O)c2c(F)cccc2F)nc1-c1ccc(F)cc1F has a remaining activity of 100%.
The remaining activity of COc1cc(Nc2c(C#N)cnc3cc(OCCCN4CCN(C)CC4)c(OC)cc23)c(Cl)cc1Cl is reported as 87.7%.
N#CC(=C(N)Sc1ccc(N)cc1)c1ccccc1C(F)(F)F gave a remaining activity of 102%.
Nc1nccc(-c2c(-c3ccc(F)cc3)ncn2C2CCNCC2)n1 has a remaining activity of 98.2%.
With O=C1NC(=O)C(c2c[nH]c3ccccc23)=C1c1c[nH]c2ccccc12 the remaining activity was 75.6%.
For Oc1ccc(Nc2nc(-c3ccc(Cl)cc3)cs2)cc1, the remaining activity was 104%.
For Cc1ccc(NC2=CC(=O)c3sc(C)nc3C2=O)cc1, the remaining activity was 97.2%.
Cc1cc(Nc2nc(-c3ccccc3)nc3ccccc23)n[nH]1 has a remaining activity of 60.4%.
For CC[n+]1c(/C=C/N(C)c2ccccc2)n(-c2ccccc2)c2ccc(-c3nc4ccccc4s3)cc21, the remaining activity was 96.8%.
CC(C)(C)n1nc(Cc2cccc3ccccc23)c2c(N)ncnc21 gave a remaining activity of 98.7%.
The remaining activity of CCc1[nH]c(-c2ccc(OC)cc2)nc1-c1ccncc1 is reported as 98.4%.
CC(=O)c1ccc(N2CCOCC2)cc1O has a remaining activity of 95.2%.
Cc1cncc2cccc(S(=O)(=O)N3CCCN(C(=O)CN)C[C@@H]3C)c12 has a remaining activity of 93.3%.
Nc1nc(Nc2ccc(S(N)(=O)=O)cc2)nn1C(=O)c1c(F)cccc1F gave a remaining activity of 92.1%.
CC#CC(=O)Nc1cc2c(Nc3ccc(F)c(Cl)c3)ncnc2cn1 gave a remaining activity of 97.1%.
The remaining activity of Fc1ccc(-c2nc3n(c2-c2ccncc2)CCS3)cc1 is reported as 108%.
The remaining activity of Nc1ncnc2c1cnn2-c1ccccc1 is reported as 103%.

Mixed results
For C[C@@H]1CN(c2cc(-c3nn(C)c4ccc(OC5(C)CC5)cc34)ncn2)C[C@H](C)O1, “increased mitochondrial mass” read greater than 50% (U2OS, HEK293T, MRC-9; high-content imaging; concentration not given, 24 h, recommended concentration, one cell line).
Cn1cncc1[C@@](O)(COc1ccc(C#N)cc1-c1ccc(OC(F)(F)F)cc1)c1ccc(C#N)cc1 has a normal cells of 94.3% (HEK293T; high-content imaging; 10 µM, 24 h).
Under “increased mitochondrial mass”, C[C@@H]1CN(c2cc(-c3n[nH]c4ccc(OC5(C)CC5)cc34)ncn2)C[C@H](C)O1 is recorded as greater than 50% (U2OS, HEK293T, MRC-9; high-content imaging; concentration not given, 24 h, recommended concentration, one cell line).
C[C@H](c1cccc(C#N)c1)n1cc(Cl)cc(C(N)=O)c1=N has a Ki of 4.44 µM (TMEM97 (Homo sapiens, UniProt Q5BJF2); binder, radioligand binding).

A few entries again (block 1):
With NC1=NC(c2ccc(Cl)cc2)N2C(=N1)N=C(O)c1ccccc12 (centres unmarked) the remaining compound was 27.2%.
For Cc1ccc(N(Cc2ccc(F)cc2)N(C)CC(=O)NC2CCCCC2)cc1, the remaining compound was 0.115%.
The remaining compound of Cc1ccc2c(c1C)NC(=O)CC2c1ccc(O)cc1 (centres unmarked) is reported as 8.96%.
